Assay results collected from several papers.
A part holds a random share of what one study measured.
Sequence of UniProt P07333 (whole entry, looked up): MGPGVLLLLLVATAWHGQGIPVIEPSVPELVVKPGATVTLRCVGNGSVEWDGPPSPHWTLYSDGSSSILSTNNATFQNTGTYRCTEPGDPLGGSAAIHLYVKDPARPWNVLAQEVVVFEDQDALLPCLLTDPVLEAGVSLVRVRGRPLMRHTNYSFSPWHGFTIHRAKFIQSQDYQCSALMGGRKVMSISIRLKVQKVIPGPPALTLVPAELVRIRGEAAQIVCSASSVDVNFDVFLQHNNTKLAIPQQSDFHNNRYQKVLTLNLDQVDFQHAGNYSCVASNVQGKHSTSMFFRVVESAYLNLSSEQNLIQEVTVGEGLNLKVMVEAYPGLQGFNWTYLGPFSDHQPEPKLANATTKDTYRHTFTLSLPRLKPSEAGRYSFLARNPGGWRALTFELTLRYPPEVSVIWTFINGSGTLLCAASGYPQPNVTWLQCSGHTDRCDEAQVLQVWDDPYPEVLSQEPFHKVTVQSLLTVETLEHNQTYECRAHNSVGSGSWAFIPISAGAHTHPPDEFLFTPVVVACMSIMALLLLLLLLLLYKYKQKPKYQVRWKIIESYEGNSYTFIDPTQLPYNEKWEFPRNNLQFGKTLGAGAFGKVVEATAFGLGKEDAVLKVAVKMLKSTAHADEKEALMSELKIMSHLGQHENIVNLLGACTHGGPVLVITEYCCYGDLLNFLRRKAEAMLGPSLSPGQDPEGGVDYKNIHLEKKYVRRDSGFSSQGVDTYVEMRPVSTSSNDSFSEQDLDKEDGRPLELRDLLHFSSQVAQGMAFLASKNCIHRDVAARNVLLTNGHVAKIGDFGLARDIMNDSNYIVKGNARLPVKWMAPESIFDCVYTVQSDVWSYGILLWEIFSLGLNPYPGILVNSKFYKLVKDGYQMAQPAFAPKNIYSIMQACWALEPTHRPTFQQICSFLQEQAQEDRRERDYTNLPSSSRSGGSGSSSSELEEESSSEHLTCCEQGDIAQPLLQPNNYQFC
Sequence of UniProt P21127 (whole entry, looked up): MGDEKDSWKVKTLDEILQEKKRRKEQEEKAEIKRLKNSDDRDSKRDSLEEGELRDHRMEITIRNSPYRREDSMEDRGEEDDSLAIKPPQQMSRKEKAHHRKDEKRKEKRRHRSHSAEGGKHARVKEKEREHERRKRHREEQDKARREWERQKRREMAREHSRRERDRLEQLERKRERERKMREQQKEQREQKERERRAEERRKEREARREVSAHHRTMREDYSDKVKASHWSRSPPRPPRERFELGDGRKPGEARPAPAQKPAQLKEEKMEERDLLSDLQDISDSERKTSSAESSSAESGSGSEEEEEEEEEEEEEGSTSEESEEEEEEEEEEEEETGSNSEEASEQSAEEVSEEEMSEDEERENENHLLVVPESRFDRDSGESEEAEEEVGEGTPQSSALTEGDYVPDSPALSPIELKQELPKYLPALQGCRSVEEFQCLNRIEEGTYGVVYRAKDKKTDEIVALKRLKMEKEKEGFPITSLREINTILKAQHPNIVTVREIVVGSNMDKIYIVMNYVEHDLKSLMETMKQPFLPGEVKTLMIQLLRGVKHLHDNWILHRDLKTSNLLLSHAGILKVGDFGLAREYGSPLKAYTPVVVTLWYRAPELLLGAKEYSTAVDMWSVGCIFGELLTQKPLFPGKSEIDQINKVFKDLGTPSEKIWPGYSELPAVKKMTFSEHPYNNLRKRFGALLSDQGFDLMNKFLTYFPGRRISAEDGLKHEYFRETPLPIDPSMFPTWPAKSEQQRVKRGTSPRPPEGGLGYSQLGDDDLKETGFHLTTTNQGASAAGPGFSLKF
Sequence of UniProt Q9UQB9 (whole entry, looked up): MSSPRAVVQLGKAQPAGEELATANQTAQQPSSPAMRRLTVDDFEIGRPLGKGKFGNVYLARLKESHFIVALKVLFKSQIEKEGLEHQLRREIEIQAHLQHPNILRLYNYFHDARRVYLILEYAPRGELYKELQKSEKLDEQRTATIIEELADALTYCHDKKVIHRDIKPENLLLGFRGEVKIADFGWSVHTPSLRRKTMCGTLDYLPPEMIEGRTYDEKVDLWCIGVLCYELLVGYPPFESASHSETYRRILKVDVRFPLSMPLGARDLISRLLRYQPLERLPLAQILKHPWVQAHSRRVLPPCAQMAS
Sequence of UniProt O75582 (whole entry, looked up): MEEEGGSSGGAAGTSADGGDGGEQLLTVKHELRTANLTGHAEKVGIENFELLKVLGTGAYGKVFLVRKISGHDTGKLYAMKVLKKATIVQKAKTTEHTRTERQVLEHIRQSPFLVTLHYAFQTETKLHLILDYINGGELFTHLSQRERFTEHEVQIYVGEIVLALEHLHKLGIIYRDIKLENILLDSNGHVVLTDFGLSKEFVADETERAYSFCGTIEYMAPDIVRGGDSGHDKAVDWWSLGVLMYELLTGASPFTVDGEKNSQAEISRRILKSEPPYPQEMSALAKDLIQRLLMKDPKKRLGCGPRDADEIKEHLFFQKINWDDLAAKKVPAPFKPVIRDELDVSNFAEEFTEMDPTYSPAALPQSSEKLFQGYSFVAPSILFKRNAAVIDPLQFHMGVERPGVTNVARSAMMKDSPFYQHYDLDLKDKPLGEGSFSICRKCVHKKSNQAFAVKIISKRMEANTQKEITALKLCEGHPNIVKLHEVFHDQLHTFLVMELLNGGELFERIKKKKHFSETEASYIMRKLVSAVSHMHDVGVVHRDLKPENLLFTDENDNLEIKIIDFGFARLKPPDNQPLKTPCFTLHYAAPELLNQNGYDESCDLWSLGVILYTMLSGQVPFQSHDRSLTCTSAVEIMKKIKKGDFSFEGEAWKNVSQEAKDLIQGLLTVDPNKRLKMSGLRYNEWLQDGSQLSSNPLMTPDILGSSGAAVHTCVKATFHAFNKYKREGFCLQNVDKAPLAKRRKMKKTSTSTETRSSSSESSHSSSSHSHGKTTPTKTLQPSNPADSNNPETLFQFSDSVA
Sequence of UniProt Q5VT25 (whole entry, looked up): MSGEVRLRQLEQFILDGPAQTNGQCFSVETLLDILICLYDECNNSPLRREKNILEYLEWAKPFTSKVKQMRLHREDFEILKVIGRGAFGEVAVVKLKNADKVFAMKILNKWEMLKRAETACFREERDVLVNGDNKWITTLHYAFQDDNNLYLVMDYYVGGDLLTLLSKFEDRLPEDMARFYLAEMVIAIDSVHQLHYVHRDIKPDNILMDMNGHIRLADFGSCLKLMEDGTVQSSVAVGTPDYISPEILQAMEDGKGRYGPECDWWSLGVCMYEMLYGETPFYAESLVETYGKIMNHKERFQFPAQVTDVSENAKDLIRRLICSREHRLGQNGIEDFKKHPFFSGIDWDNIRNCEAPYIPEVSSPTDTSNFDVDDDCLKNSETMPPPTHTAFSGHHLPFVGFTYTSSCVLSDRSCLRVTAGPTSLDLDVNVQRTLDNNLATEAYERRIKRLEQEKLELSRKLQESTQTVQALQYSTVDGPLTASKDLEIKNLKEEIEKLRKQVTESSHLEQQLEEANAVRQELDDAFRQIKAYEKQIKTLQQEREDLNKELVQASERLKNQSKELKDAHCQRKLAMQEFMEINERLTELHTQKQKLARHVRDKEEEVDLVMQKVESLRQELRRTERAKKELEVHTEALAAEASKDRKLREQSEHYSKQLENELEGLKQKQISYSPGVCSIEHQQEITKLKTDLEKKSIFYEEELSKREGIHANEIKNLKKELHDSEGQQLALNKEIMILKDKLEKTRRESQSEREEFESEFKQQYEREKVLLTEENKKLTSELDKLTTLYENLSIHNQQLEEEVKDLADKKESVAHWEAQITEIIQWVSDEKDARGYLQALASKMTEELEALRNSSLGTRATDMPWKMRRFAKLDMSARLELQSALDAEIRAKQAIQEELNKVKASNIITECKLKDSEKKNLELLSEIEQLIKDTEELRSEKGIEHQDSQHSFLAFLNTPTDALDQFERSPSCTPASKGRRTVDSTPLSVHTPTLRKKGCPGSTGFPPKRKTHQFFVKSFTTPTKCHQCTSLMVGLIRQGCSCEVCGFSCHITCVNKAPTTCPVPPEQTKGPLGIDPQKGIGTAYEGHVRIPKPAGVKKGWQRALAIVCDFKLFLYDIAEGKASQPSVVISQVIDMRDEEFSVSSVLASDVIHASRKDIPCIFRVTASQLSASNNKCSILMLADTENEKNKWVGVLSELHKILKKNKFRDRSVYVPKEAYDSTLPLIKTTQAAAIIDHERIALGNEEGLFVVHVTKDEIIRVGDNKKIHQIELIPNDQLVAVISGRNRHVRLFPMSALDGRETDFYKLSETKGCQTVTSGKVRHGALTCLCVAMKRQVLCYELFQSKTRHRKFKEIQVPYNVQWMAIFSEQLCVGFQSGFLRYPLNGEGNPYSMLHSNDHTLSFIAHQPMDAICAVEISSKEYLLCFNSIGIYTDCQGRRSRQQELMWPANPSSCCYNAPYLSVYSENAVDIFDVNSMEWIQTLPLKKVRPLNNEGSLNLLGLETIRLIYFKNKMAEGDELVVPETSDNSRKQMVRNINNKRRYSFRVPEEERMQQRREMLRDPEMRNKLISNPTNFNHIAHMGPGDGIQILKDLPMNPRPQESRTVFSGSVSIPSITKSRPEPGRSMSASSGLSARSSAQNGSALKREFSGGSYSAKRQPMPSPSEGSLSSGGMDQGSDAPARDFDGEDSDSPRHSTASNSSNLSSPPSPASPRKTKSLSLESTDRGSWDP
Sequence of UniProt O00141 (whole entry, looked up): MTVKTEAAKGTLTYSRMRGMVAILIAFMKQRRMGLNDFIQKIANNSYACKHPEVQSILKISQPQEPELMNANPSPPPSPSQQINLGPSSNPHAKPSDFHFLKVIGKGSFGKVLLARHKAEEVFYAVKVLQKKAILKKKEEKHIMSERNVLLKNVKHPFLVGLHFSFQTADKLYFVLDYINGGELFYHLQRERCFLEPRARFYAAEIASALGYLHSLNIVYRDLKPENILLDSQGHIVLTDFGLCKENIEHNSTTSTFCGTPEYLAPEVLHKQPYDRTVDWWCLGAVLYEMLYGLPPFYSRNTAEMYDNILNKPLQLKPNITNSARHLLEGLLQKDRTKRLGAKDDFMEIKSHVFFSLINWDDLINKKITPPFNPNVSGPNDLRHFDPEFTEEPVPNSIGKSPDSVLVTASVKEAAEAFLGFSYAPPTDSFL

Sample 1
Species: human
Matrix: microsomes or S9
Tested at: 2 µM
Time: 0.5 h
Endpoint: remaining compound
COc1c2c(c(S(=O)(=O)N3CCOCC3)c3c1C(=O)N(C)CC3)OCO2: 90.6%
CCc1noc(C2(NC(=O)C3CCCC3)CCCCC2)n1: > 100%
Cc1ccc(-c2nc3[nH]c(CNc4ccc(F)cc4)cc(=O)n3n2)cc1: 0.268%
COc1ccc(C2N(C(C)=O)c3ccccc3N2S(=O)(=O)c2ccc(C)cc2)cc1 (centres unmarked): 0%
Cc1nn(-c2nnn(CC(=O)O)n2)c(C)c1Br: 79.2%
Cc1cc2oc(-c3ccsc3)c(CC(=O)O)c2c(=O)[nH]1: 95.7%
Cc1ccc(-c2csc3ncn(-n4cccc4)c(=O)c23)o1: 28.2%
CC(C)C1(C)SC(NC2CC3CCC2C3)=NC1=O (centres unmarked): 95.6%

Sample 2
SMILES: O=C(Nc1cccnn1)N1CC(C/C=C/c2cncc(Oc3ccc(C(F)(F)F)cn3)n2)C1
Technique: competition with immobilised ligand
Tested at: 1 µM
Endpoint: remaining binding
Macrophage colony-stimulating factor 1 receptor (CSF1R, Homo sapiens, UniProt P07333); cell-free assay: 100%
Phosphatidylinositol 4-phosphate 5-kinase type-1 alpha (PIP5K1A, Homo sapiens, UniProt Q99755); cell-free assay: 100%
Serine/threonine-protein kinase PRP4 homolog (PRPF4B, Homo sapiens, UniProt Q13523); cell-free assay: 100%
Vascular endothelial growth factor receptor 3 (FLT4, Homo sapiens, UniProt P35916); cell-free assay: 100%
Casein kinase I isoform gamma-1 (CSNK1G1, Homo sapiens, UniProt Q9HCP0); cell-free assay: 100%
cAMP-dependent protein kinase catalytic subunit beta (PRKACB, Homo sapiens, UniProt P22694); cell-free assay: 100%
Leucine-rich repeat serine/threonine-protein kinase 2 (LRRK2, Homo sapiens, UniProt Q5S007, G2019S); cell-free assay: 100%
Focal adhesion kinase 1 (PTK2, Homo sapiens, UniProt Q05397); cell-free assay: 100%
Serine/threonine-protein kinase PAK 5 (PAK5, Homo sapiens, UniProt Q9P286); cell-free assay: 95%
Cyclin-dependent kinase 9 (CDK9, Homo sapiens, UniProt P50750); cell-free assay: 100%
Cyclin-dependent kinase 11B (CDK11B, Homo sapiens, UniProt P21127); cell-free assay: 100%
Phosphatidylinositol 4,5-bisphosphate 3-kinase catalytic subunit beta isoform (PIK3CB, Homo sapiens, UniProt P42338); cell-free assay: 79%
Serine/threonine-protein kinase Sgk1 (SGK1, Homo sapiens, UniProt O00141); cell-free assay: 85%
Bone morphogenetic protein receptor type-1A (BMPR1A, Homo sapiens, UniProt P36894); binding: 100%
Casein kinase I isoform gamma-2 (CSNK1G2, Homo sapiens, UniProt P78368); cell-free assay: 100%
Ribosomal protein S6 kinase alpha-5, C-terminal kinase domain (RPS6KA5, Homo sapiens, UniProt O75582); cell-free assay: 100%
Phosphatidylinositol 4,5-bisphosphate 3-kinase catalytic subunit alpha isoform (PIK3CA, Homo sapiens, UniProt P42336, E545K); cell-free assay: 81%
Serine/threonine-protein kinase MRCK alpha (CDC42BPA, Homo sapiens, UniProt Q5VT25); cell-free assay: 100%

Sample 3
Compound: CN(C)S(=O)(=O)c1ccc2c(c1)/C(=C/c1cc3c([nH]1)CCCC3)C(=O)N2
Read-out: enzyme activity
Action: inhibitor
Tested at: 0.5 µM
Relative to: control
Endpoint: remaining activity
Beta-adrenergic receptor kinase 1 (GRK2, Homo sapiens, UniProt P25098): 95%
Protein kinase C epsilon type (PRKCE, Homo sapiens, UniProt Q02156): 94.6%
Myosin light chain kinase, smooth muscle (MYLK, Homo sapiens, UniProt Q15746): 97.2%
Receptor-type tyrosine-protein kinase FLT3 (FLT3, Homo sapiens, UniProt P36888): 10.2%
NUAK family SNF1-like kinase 1 (NUAK1, Homo sapiens, UniProt O60285): 10.9%
Ribosomal protein S6 kinase alpha-1 (RPS6KA1, Homo sapiens, UniProt Q15418): 68.1%
Macrophage colony-stimulating factor 1 receptor (CSF1R, Homo sapiens, UniProt P07333): 37.2%
Aurora kinase C (AURKC, Homo sapiens, UniProt Q9UQB9): 33.8%
Serine/threonine-protein kinase PAK 2 (PAK2, Homo sapiens, UniProt Q13177): 92.5%
Ephrin type-A receptor 7 (EPHA7, Homo sapiens, UniProt Q15375): 91.1%
SRSF protein kinase 3 (SRPK3, Homo sapiens, UniProt Q9UPE1): 67.2%

Other studies, line by line
Cc1cc2c(C(N)=O)c(N)n(-c3c(C)ccc(O)c3C)c2nc1C
binding remaining (ABL1 non-phosphorylated human; KINOMEscan; 1000 nM; relative to: control): 0.25%

Repeated from above (sample 2):
Phosphatidylinositol 4,5-bisphosphate 3-kinase catalytic subunit alpha isoform (PIK3CA, Homo sapiens, UniProt P42336, E545K); cell-free assay: 81%
cAMP-dependent protein kinase catalytic subunit beta (PRKACB, Homo sapiens, UniProt P22694); cell-free assay: 100%
